# Measurements from different studies.
# Each numbered part is a random draw from the data of one study; scales do not carry over between parts.
# Chain of UniProt Q9Y6M4 (whole entry, looked up): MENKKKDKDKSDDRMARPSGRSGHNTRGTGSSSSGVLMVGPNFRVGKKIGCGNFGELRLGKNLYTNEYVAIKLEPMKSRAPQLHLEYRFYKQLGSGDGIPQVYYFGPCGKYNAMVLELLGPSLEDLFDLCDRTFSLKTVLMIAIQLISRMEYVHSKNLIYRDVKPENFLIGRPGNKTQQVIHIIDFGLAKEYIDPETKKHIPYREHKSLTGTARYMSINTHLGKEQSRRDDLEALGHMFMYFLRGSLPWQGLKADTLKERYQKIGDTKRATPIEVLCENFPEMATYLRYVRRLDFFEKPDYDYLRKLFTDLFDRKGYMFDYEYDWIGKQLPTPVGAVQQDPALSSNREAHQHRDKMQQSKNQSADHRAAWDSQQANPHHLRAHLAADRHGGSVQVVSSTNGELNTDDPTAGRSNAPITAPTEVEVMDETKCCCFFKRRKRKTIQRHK
# Chain of UniProt Q8NEV4 (whole entry, looked up): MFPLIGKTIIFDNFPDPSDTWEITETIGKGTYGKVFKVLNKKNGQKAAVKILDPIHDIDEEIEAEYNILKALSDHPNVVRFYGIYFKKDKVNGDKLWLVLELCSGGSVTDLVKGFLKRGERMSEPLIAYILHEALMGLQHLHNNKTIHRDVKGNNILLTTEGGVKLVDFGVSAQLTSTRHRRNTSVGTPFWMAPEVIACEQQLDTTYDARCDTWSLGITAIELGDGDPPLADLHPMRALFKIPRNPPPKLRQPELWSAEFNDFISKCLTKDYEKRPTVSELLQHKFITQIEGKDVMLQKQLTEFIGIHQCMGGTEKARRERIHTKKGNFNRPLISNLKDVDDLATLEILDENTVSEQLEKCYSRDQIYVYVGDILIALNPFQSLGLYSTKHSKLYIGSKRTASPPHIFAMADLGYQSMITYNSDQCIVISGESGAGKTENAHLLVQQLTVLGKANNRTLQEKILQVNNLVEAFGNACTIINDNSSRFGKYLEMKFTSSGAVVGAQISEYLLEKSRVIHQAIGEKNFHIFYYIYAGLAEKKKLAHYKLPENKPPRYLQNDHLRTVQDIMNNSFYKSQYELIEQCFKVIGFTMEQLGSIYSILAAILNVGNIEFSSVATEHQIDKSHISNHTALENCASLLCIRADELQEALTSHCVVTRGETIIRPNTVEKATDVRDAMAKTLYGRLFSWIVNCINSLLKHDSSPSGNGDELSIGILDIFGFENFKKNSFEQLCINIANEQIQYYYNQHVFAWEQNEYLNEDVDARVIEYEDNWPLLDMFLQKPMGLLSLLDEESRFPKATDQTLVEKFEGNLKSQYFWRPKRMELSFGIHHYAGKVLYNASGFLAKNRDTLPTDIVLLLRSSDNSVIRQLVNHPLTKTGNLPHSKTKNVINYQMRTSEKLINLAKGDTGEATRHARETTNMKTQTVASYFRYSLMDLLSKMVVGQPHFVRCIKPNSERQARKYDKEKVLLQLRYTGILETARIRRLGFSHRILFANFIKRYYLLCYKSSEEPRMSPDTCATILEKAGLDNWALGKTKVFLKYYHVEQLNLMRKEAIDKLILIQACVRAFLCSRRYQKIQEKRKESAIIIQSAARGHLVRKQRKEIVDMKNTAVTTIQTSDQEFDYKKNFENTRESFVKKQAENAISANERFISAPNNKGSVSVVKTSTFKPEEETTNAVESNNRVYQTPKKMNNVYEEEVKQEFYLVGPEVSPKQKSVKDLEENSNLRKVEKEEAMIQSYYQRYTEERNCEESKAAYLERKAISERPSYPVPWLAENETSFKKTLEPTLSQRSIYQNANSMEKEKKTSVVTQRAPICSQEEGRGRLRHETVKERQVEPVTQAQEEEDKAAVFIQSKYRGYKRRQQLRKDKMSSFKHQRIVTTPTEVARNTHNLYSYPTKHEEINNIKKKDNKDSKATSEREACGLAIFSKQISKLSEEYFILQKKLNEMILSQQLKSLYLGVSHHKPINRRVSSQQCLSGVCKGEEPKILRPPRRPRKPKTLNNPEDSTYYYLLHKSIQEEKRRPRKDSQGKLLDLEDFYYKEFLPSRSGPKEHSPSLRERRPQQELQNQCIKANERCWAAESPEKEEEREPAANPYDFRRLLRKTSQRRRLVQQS
# Chain of UniProt P36896 (whole entry, looked up): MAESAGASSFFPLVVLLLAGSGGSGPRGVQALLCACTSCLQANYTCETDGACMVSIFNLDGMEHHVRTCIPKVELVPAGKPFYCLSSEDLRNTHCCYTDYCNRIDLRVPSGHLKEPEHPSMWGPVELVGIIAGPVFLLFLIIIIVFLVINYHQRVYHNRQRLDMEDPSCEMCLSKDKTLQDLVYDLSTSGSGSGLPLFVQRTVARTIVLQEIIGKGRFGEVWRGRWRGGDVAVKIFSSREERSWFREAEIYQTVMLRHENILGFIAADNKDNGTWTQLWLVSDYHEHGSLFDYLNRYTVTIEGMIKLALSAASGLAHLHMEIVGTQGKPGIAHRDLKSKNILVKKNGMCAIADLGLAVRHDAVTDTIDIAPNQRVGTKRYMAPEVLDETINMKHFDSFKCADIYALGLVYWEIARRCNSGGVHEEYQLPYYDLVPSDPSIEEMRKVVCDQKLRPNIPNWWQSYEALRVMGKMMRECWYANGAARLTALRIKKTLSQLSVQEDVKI
# Chain of UniProt Q12866 (whole entry, looked up): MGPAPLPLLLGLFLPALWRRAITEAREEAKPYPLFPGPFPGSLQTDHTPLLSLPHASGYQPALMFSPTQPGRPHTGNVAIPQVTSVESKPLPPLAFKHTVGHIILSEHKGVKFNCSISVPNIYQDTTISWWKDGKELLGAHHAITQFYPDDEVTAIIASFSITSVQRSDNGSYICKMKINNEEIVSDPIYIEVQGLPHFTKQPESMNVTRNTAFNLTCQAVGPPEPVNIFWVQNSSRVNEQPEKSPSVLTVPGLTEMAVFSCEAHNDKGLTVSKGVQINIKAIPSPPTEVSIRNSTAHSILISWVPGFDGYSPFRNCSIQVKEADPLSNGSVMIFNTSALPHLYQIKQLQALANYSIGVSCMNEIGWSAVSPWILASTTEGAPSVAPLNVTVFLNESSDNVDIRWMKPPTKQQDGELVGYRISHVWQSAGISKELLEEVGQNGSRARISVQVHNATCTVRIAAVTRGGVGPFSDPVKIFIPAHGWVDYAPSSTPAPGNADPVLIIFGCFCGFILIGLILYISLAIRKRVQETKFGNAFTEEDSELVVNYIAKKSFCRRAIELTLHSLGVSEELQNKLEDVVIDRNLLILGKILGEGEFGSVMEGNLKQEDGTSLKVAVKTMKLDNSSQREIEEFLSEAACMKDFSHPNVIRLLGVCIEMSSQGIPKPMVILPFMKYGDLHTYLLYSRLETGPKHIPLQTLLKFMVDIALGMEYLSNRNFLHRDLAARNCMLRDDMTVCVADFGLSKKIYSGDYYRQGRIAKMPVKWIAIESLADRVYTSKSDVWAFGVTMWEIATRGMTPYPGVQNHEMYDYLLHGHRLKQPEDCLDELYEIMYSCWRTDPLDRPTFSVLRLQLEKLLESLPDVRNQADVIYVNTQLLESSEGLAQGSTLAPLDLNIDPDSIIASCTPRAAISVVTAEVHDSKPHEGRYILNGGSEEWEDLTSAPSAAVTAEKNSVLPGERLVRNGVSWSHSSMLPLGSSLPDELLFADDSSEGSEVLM
# Chain of UniProt P57059 (whole entry, looked up): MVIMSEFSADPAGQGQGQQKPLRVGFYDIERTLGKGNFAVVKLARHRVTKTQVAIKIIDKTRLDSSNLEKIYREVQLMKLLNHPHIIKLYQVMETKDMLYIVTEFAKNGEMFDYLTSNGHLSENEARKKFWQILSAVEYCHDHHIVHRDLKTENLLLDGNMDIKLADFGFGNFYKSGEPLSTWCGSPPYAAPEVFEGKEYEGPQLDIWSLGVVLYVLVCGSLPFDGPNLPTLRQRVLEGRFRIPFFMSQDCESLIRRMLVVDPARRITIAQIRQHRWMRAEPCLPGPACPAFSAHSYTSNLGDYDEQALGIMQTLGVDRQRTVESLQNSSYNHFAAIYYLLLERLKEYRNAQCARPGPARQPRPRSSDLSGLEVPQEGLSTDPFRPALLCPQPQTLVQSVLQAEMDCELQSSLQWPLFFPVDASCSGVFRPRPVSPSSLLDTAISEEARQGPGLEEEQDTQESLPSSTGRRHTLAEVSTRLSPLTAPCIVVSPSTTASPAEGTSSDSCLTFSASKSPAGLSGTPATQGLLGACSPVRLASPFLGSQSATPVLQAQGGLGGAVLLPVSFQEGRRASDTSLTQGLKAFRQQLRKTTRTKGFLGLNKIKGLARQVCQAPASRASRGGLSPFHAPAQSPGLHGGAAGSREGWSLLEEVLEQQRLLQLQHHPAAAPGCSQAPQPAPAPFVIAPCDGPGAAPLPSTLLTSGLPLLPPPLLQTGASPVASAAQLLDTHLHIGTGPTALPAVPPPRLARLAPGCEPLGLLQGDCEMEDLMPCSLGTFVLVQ

# Study 1
# SMILES: O=C1NC(=O)C(c2cn(-c3ccccc3)nc2-c2ccc(F)cc2)N1 (stereo not drawn)
# Mode: inhibitor
# Concentration: 5 µM
target,test,system,setting,scale,log2 fold change
"STK32A (Homo sapiens, UniProt Q8WU08)",kinase activity,,cell-based kinome screen,reference: vehicle,0.285
"BRAF (Homo sapiens, UniProt P15056, E586K)",cell-based kinome profiling,human cells,,reference: vehicle control,-0.142
"CSNK1D (Homo sapiens, UniProt P48730)",kinase–CDC37 interaction,,kinome plate 2@F04,reference: vehicle,-0.106
"Cyclin-dependent kinase 14, with CDC37 (CDK14, Homo sapiens, UniProt O94921)",,human cells,,reference: vehicle,-0.007
"CAMK2B (Homo sapiens, UniProt Q13554)",cell-based kinome profiling,human cells,,reference: vehicle control,-0.164
"ACVR1 (Homo sapiens, UniProt Q04771)",kinase–CDC37 interaction,,kinome plate 4@F04,reference: vehicle,-0.402

# Study 2
# Structure (SMILES): Nc1ncnc2n[nH]c(Nc3ccc(F)cc3)c12
# Read-out: enzyme activity
# Mode: inhibitor
# Concentration: 0.5 µM
# Reference: control
target,remaining activity
"FGFR1 (Homo sapiens, UniProt P11362)",91.2%
"CSNK1G2 (Homo sapiens, UniProt P78368)",95.7%
"MST1R (Homo sapiens, UniProt Q04912)",93.7%
"GSK3B (Homo sapiens, UniProt P49841)",101%
"MAP3K5 (Homo sapiens, UniProt Q99683)",111%
"WEE1 (Homo sapiens, UniProt P30291)",93.9%
"MAP2K2 (Homo sapiens, UniProt P36507)",90%
"LCK (Homo sapiens, UniProt P06239)",98.3%
"FRK (Homo sapiens, UniProt P42685)",90%
"ACVR1B (Homo sapiens, UniProt P36896)",104%
"MAPKAPK2 (Homo sapiens, UniProt P49137)",105%
"CSNK1G3 (Homo sapiens, UniProt Q9Y6M4)",97.9%
"ULK3 (Homo sapiens, UniProt Q6PHR2)",92.8%
"JAK3 (Homo sapiens, UniProt P52333)",102%
"RPS6KA2 (Homo sapiens, UniProt Q15349)",70.6%
"MERTK (Homo sapiens, UniProt Q12866)",90.7%
"FGFR3 (Homo sapiens, UniProt P22607)",101%
"MAP3K14 (Homo sapiens, UniProt Q99558)",111%

# Study 3
# SMILES: C[C@@H]1CN(c2cc(-c3n[nH]c4ccc(OC5(C)CC5)cc34)ncn2)C[C@H](C)O1
# Concentration: 0.1 µM
target,test,remaining binding [%]
"Myosin-IIIa (MYO3A, Homo sapiens, UniProt Q8NEV4)","cell-free assay, competition with immobilised ligand",100
"SIK1 (Homo sapiens, UniProt P57059)",competition binding,100
"BMPR1A (Homo sapiens, UniProt P36894)","cell-free assay, competition with immobilised ligand",100
"ROCK2 (Homo sapiens, UniProt O75116)","cell-free assay, competition with immobilised ligand",89
"BMX (Homo sapiens, UniProt P51813)","cell-free assay, competition with immobilised ligand",80
"CIT (Homo sapiens, UniProt O14578)","cell-free assay, competition with immobilised ligand",69
"MAPK6 (Homo sapiens, UniProt Q16659)","cell-free assay, competition with immobilised ligand",91

# Study 4
# Target: Calcium/calmodulin-dependent protein kinase type II subunit alpha (CAMK2A, Homo sapiens, UniProt Q9UQM7)
# Chain of UniProt Q9UQM7 (whole entry, looked up): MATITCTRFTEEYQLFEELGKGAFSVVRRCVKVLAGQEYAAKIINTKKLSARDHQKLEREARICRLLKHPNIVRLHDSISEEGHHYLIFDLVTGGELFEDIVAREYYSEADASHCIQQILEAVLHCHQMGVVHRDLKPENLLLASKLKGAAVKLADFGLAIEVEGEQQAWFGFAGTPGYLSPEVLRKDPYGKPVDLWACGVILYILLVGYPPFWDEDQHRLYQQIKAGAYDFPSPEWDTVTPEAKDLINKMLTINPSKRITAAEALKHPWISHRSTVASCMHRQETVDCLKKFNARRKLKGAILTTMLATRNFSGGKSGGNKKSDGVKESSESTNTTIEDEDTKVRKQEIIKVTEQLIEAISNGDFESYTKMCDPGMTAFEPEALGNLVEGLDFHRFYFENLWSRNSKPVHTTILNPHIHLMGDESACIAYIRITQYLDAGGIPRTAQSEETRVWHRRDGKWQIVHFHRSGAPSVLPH
# Read-out: enzyme activity
# Mode: inhibitor
# Concentration: 10 µM
Structure (SMILES),inhibition [%]
CN(C)CCC=C1c2ccccc2CCc2ccccc21,13
Cc1cnccn1,51
CC1=C(CC[C@@H](C)CO[C@@H]2O[C@H](CO)[C@@H](O)[C@H](O)[C@H]2O)O[C@H]2C[C@H]3[C@@H]4CC=C5C[C@@H](O[C@@H]6O[C@H](CO)[C@@H](O[C@@H]7O[C@@H](C)[C@H](O)[C@@H](O)[C@H]7O)[C@H](O)[C@H]6O[C@@H]6O[C@@H](C)[C@H](O)[C@@H](O)[C@H]6O)CC[C@]5(C)[C@H]4CC[C@]3(C)[C@@H]12,-80
O=C1CC[C@H](NC(=O)Cc2ccccc2)C(=O)N1,-4
O=C(O)C#Cc1ccccc1,-59
OC[C@@H](O)[C@@H](O)[C@H](O)[C@H](O)CO,0.11
CCN1C(=O)N(c2c(F)c(OC)cc(OC)c2F)Cc2cnc3[nH]c(CN4CCOCC4)cc3c21,-8
CCCCC(CC)COC(=O)C(C#N)=C(c1ccccc1)c1ccccc1 (stereo not drawn),-12

# Repeated from above (study 4):
Structure (SMILES),inhibition [%]
CCCCC(CC)COC(=O)C(C#N)=C(c1ccccc1)c1ccccc1 (stereo not drawn),-12
Cc1cnccn1,51
OC[C@@H](O)[C@@H](O)[C@H](O)[C@H](O)CO,0.11
CN(C)CCC=C1c2ccccc2CCc2ccccc21,13
CC1=C(CC[C@@H](C)CO[C@@H]2O[C@H](CO)[C@@H](O)[C@H](O)[C@H]2O)O[C@H]2C[C@H]3[C@@H]4CC=C5C[C@@H](O[C@@H]6O[C@H](CO)[C@@H](O[C@@H]7O[C@@H](C)[C@H](O)[C@@H](O)[C@H]7O)[C@H](O)[C@H]6O[C@@H]6O[C@@H](C)[C@H](O)[C@@H](O)[C@H]6O)CC[C@]5(C)[C@H]4CC[C@]3(C)[C@@H]12,-80
